Published values pooled from the literature.
Several values in a cell are separate wells, animals, samples, runs or records. Numbers after ± are the reported error.
4'-phosphopantetheinyl transferase PptT: 4'-phosphopantetheinyl transferase PptT (Mycobacterium tuberculosis, UniProt O33336)
F2 gamma-thrombin: Prothrombin, gamma-thrombin (F2, Homo sapiens, UniProt P00734)

Compound	tested on	test	system	setting	how to read	measurement	result
O=[N+]([O-])CC(c1ccco1)c1c(-c2ccccc2)[nH]c2ccccc12 (stereo not drawn)	Cannabinoid receptor 1, with Gi1 (CNR1, Homo sapiens, UniProt P21554)	Gi1 dissociation, agonist, BRET	HEK293			EC50	280 ± 10 nM
CCN(Cc1ccc2nc(C)[nH]c(=O)c2c1)c1cnc(C(=O)NC(CCC(=O)O)C(=O)O)s1 (stereo not drawn)	4'-phosphopantetheinyl transferase PptT	enzyme activity, inhibitor, FP				IC50	88 nM
COc1ccccc1-c1n[nH]c2nc(NC3CCN(C(=O)Cc4ccc(F)cc4F)CC3)ncc12		bead binding, competition bead pull-down, refers to: LINJ.36.7240	Leishmania donovani extract	10 µM	relative to: vehicle	relative abundance	1.07
O=C1NC2(CC2)COc2ncc(F)cc2[C@H]2COCCN2c2ccn3ncc1c3n2			Sprague-Dawley rat, male, serum	oral, 20 mg/kg/day, end of recovery, 4-week subacute toxicity		serum LDH activity	1024 ± 212 U/L
COc1ccccc1C(C[N+](=O)[O-])c1c(-c2ccccc2)[nH]c2ccccc12 (stereo not drawn)	CNR1 (Homo sapiens, UniProt P21554, V171A)	G protein activation, agonist, BRET				EC50	270 nM
C#CCN(Cc1ccc2nc(C)[nH]c(=O)c2c1)c1ccc(C(=O)N[C@H](CCC(=O)O)C(=O)O)cc1	4'-phosphopantetheinyl transferase PptT	enzyme activity, inhibitor, FP				IC50	79 nM
CC(C)[C@@H]1NC(=O)[C@H](C)NC(=O)[C@H](Cc2ccc(O)cc2)NC(=O)[C@H](CC(=O)O)NC(=O)[C@@H](NC(=O)[C@H](CCCCN)NC(=O)[C@H](CC(=O)O)NC(=O)[C@H](Cc2c[nH]cn2)NC(=O)[C@@H](NC(=O)[C@H](Cc2ccccc2)NC(=O)[C@@H](N)Cc2ccccc2)C(C)C)CCSSCC[C@@H](C(=O)N[C@@H](CCCCN)C(=O)NCC(=O)N[C@@H](CO)C(=O)N[C@@H](CCCCNC(=O)CCCC[C@@H]2SC[C@@H]3NC(=O)N[C@@H]32)C(N)=O)NC(=O)[C@H](CCC(N)=O)NC(=O)[C@H](Cc2c[nH]cn2)NC1=O	anti-HA antibody 12CA5 (mouse)	biolayer interferometry		30 °C		Kd	2.1 nM
CCCCCn1cc(C(=O)c2cccc3c2CC(C)(C)C3)c2ccccc21	CNR1 (Homo sapiens, UniProt P21554, I267L/L193I/L359V)	cAMP inhibition, agonist, CAMYEL BRET biosensor		with: forskolin 10 µM		EC50	2.04 nM
CC[C@H](C)[C@H](NC(=O)[C@@H]1CCCN1C(=O)[C@H](CCC(=O)O)NC(=O)[C@H](CCSC)NC(=O)CNC(=O)[C@H](CC(N)=O)NC(=O)CNC(=O)CNC(=O)[C@H](CCC(=O)O)NC(=O)CNC(=O)[C@H](CCCNC(=N)N)NC(=O)[C@H](CCC(N)=O)NC(=O)[C@H](Cc1ccc(O)cc1)NC(=O)[C@H](CC(C)C)NC(=O)[C@H](CCCCN)NC(=O)[C@@H]1CCCN1C(=O)[C@H](CCC(N)=O)NC(=O)[C@H](C)NC(=O)[C@@H](NC(=O)[C@H](CCC(=O)O)NC(=O)[C@H](C)NC(=O)[C@H](CCC(=O)O)NC(=O)[C@@H](NC(=O)[C@@H]1CCCN1C(=O)[C@@H](N)CCCCN)C(C)C)C(C)C)C(=O)N1CCC[C@H]1C(=O)N[C@@H](CCC(=O)O)C(=O)N[C@@H](CC(=O)O)C(=O)N[C@@H](Cc1ccc(O)cc1)C(=O)N[C@@H](CC(C)C)C(=O)N[C@@H](CC(=O)O)C(=O)N[C@@H](CC(=O)O)C(=O)N[C@@H](CCC(=O)O)C(=O)N[C@@H](CO)C(=O)O	F2 gamma-thrombin			pH 8		Ki	43800 ± 2090 nM
CC(C)CC(C(=O)N1CC2(CC1C#N)C(=O)Nc1ccccc12)N(C)C(=O)c1cc2c(F)cc(F)c(F)c2[nH]1 (stereo not drawn)	Cathepsin G (CTSG, Homo sapiens, UniProt P08311)	enzyme activity, inhibitor				IC50	72100 nM and > 100000 nM
CC(C)C[C@H](NC(=O)[C@H](C)NC(=O)[C@@H](N)CCC(N)=O)C(=O)N[C@@H](Cc1ccccc1)C(=O)N[C@@H](CC(=O)O)C(=O)N[C@H](C(=O)N[C@H]1CCSSC[C@@H](C(=O)N[C@@H](CCCCN)C(=O)NCC(=O)N[C@@H](CO)C(=O)N[C@@H](CCCCNC(=O)CCCC[C@@H]2SC[C@@H]3NC(=O)N[C@@H]32)C(N)=O)NC(=O)[C@H](CC(N)=O)NC(=O)[C@@H]2CCCN2C(=O)[C@H](Cc2c[nH]cn2)NC(=O)[C@H](CO)NC(=O)[C@H](Cc2ccc(O)cc2)NC(=O)[C@H](CC(=O)O)NC1=O)C(C)C	anti-HA antibody 12CA5 (mouse)	biolayer interferometry		30 °C		Kd	< 1 nM
CCCCCn1cc(C(=O)c2ccc3c(c2)CC(C)(C)C3)c2ccccc21	CNR2 (Homo sapiens, UniProt P34972, L182I)	cAMP, agonist, BRET				EC50	52.5 nM
Cc1nc2ccc(CN(C)c3sc(C(=O)NC(CCC(=O)O)C(=O)O)cc3F)cc2c(=O)[nH]1 (stereo not drawn)	4'-phosphopantetheinyl transferase PptT	enzyme activity, inhibitor, FP				IC50	69 nM
CC(C)(C)C(=O)OCOP(=O)(OCOC(=O)C(C)(C)C)C1CCCN(O)C1=O (stereo not drawn)	UACC-257					log GI50	-5.92 log M
C#CCN(Cc1ccc2nc(C)[nH]c(=O)c2c1)c1ccc(C(=O)N[C@@H](CSCCC(=O)O)C(=O)O)cc1	4'-phosphopantetheinyl transferase PptT	enzyme activity, inhibitor, FP				IC50	59 nM
CCN(CC)C(=O)[C@@H]1C=C2c3cccc4c3c(cn4C(=O)c3ccco3)C[C@H]2N(C)C1	ADRB3 (Homo sapiens, UniProt P13945)	ligand displacement, radioligand				Ki	> 10000 nM
C=CCN(Cc1ccc2nc(C)[nH]c(=O)c2c1)c1ccc(C(=O)N[C@H](CCC(=O)O)C(=O)O)s1	4'-phosphopantetheinyl transferase PptT	enzyme activity, inhibitor, FP				IC50	18 nM
CCN(CC)C(=O)c1ccc(C(c2cccc(O)c2)N2CC(C)N(Cc3ccccc3)CC2C)cc1 (stereo not drawn)	OPRD1 (Homo sapiens, UniProt P41143, N131S)					Ki	1.94 ± 0.69 nM
CC[C@H](C)[C@H](NC(=O)[C@@H]1CCCN1C(=O)[C@H](C)NC(=O)CNC(=O)[C@@H]1CCCN1C(=O)[C@H](CCC(=O)O)NC(=O)CN)C(=O)N[C@@H](CC(=O)O)C(=O)N[C@@H](Cc1ccc(O)cc1)C(=O)N[C@@H](CC(=O)O)C(=O)N[C@@H](CCC(=O)O)C(=O)N[C@@H](Cc1ccc(O)cc1)C(=O)NCC(=O)N[C@@H](CC(=O)O)C(=O)N[C@@H](CO)C(=O)N[C@@H](CO)C(=O)N[C@@H](CCC(=O)O)C(=O)N[C@@H](CCC(=O)O)C(=O)N[C@H](C(=O)NCC(=O)NCC(=O)N[C@@H](C)C(=O)N[C@@H](CCC(=O)O)C(=O)N[C@H](C(=O)N[C@@H](C)C(=O)N[C@@H](CCC(N)=O)C(=O)N1CCC[C@H]1C(=O)N[C@@H](CCCCN)C(=O)N[C@@H](CC(C)C)C(=O)N[C@@H](Cc1ccc(O)cc1)C(=O)N[C@@H](CCC(N)=O)C(=O)N[C@@H](CCCNC(=N)N)C(=O)NCC(=O)N[C@@H](CCC(=O)O)C(=O)NCC(=O)NCC(=O)N[C@@H](CC(N)=O)C(=O)NCC(=O)N[C@@H](CCSC)C(=O)N[C@@H](CCC(=O)O)C(=O)N1CCC[C@H]1C(=O)N[C@H](C(=O)N1CCC[C@H]1C(=O)N[C@@H](CCC(=O)O)C(=O)N[C@@H](CC(=O)O)C(=O)N[C@@H](Cc1ccc(O)cc1)C(=O)N[C@@H](CC(C)C)C(=O)N[C@@H](CCC(N)=O)C(=O)O)[C@@H](C)CC)C(C)C)C(C)C	F2 gamma-thrombin			pH 8		Ki	360 ± 21 nM
CCCCCn1cc(C(=O)c2cccc3ccccc23)c2ccccc21	CNR1 (Homo sapiens, UniProt P21554, H178A)	G protein activation, agonist, BRET				EC50	871 nM
Cc1ccc2c(C(C[N+](=O)[O-])c3cccs3)c(-c3ccccc3)[nH]c2c1 (stereo not drawn)	CNR1 (Homo sapiens, UniProt P21554)	β-arrestin2 recruitment, agonist, NanoBiT				EC50	220 ± 10 nM
Cc1nc2ccc(CN(C)c3ccc(C(=O)NC(CCC(=O)O)CC(=O)O)cc3)cc2c(=O)[nH]1 (stereo not drawn)	4'-phosphopantetheinyl transferase PptT	enzyme activity, inhibitor, FP				IC50	47 nM
O=C1CCCCO1	Carbonic anhydrase (Vibrio cholerae serotype O1, UniProt Q9KMP6)	enzyme activity, inhibitor, stopped-flow				Ki	44000 nM
C=CCN(Cc1ccc2nc(C)[nH]c(=O)c2c1)c1cnc(C(=O)NC(CCC(=O)O)C(=O)O)s1 (stereo not drawn)	4'-phosphopantetheinyl transferase PptT	enzyme activity, inhibitor, FP				IC50	63 nM
CC[C@H](C)[C@H](NC(=O)[C@@H]1CCCN1C(=O)[C@H](CCC(=O)O)NC(=O)[C@H](CCSC)NC(=O)CNC(=O)[C@H](CC(N)=O)NC(=O)CNC(=O)CNC(=O)[C@H](CCC(=O)O)NC(=O)CNC(=O)[C@H](CCCNC(=N)N)NC(=O)[C@H](CCC(N)=O)NC(=O)[C@H](Cc1ccc(O)cc1)NC(=O)[C@H](CC(C)C)NC(=O)[C@H](CCCCN)NC(=O)[C@@H]1CCCN1C(=O)[C@H](CCC(N)=O)NC(=O)[C@H](C)NC(=O)[C@@H](NC(=O)[C@H](CCC(=O)O)NC(=O)[C@H](C)NC(=O)[C@H](CCC(=O)O)NC(=O)[C@@H](NC(=O)[C@@H]1CCCN1C(=O)[C@@H](N)CCCCN)C(C)C)C(C)C)C(=O)N1CCC[C@H]1C(=O)N[C@@H](CCC(=O)O)C(=O)N[C@@H](CC(=O)O)C(=O)N[C@@H](Cc1ccc(OS(=O)(=O)O)cc1)C(=O)N[C@@H](CC(C)C)C(=O)N[C@@H](CC(=O)O)C(=O)N[C@@H](CC(=O)O)C(=O)N[C@@H](CCC(=O)O)C(=O)N[C@@H](CO)C(=O)O	Prothrombin (F2, Homo sapiens, UniProt P00734)	enzyme activity, inhibitor, absorbance		pH 8		Ki	0.00632 nM
C#CCN(Cc1ccc2nc(C)[nH]c(=O)c2c1)c1ccc(C(=O)NC(CCCC(=O)O)C(=O)O)cc1 (stereo not drawn)	4'-phosphopantetheinyl transferase PptT	enzyme activity, inhibitor, FP				IC50	53 nM
c1cn(Cc2ccc(-c3ccc4c(c3)OCO4)cc2)cn1	cyp121 (Mycobacterium tuberculosis, UniProt P9WPP7)	mycocyclosin formation, inhibitor, LC-MS/MS		with: cYY 20 µM		IC50	36000 nM

Some of these lines once more:
Compound	tested on	test	system	setting	how to read	measurement	result
COc1ccccc1C(C[N+](=O)[O-])c1c(-c2ccccc2)[nH]c2ccccc12 (stereo not drawn)	CNR1 (Homo sapiens, UniProt P21554, V171A)	G protein activation, agonist, BRET				EC50	270 nM
Cc1nc2ccc(CN(C)c3sc(C(=O)NC(CCC(=O)O)C(=O)O)cc3F)cc2c(=O)[nH]1 (stereo not drawn)	4'-phosphopantetheinyl transferase PptT	enzyme activity, inhibitor, FP				IC50	69 nM
CCN(Cc1ccc2nc(C)[nH]c(=O)c2c1)c1cnc(C(=O)NC(CCC(=O)O)C(=O)O)s1 (stereo not drawn)	4'-phosphopantetheinyl transferase PptT	enzyme activity, inhibitor, FP				IC50	88 nM
COc1ccccc1-c1n[nH]c2nc(NC3CCN(C(=O)Cc4ccc(F)cc4F)CC3)ncc12		bead binding, competition bead pull-down, refers to: LINJ.36.7240	Leishmania donovani extract	10 µM	relative to: vehicle	relative abundance	1.07
